Measurements gathered from unrelated publications.
Numbered parts are unrelated; each lists some results of a single study. “And” joins repeats or separate records; there may be more than shown.
Sequence of UniProt Q15831 (whole entry, looked up): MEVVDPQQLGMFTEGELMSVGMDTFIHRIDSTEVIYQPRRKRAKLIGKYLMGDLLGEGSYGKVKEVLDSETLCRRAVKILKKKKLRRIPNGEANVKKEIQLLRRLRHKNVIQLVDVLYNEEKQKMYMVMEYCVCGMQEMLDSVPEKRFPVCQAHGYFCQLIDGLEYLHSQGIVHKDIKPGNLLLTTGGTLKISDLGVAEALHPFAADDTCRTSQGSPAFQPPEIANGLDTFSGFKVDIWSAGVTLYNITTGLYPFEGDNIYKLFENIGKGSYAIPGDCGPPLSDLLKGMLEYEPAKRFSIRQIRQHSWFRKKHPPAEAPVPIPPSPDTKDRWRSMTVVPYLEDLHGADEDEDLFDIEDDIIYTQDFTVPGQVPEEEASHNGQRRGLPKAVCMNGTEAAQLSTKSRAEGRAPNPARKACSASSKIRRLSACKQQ
Sequence of UniProt P07948 (whole entry, looked up): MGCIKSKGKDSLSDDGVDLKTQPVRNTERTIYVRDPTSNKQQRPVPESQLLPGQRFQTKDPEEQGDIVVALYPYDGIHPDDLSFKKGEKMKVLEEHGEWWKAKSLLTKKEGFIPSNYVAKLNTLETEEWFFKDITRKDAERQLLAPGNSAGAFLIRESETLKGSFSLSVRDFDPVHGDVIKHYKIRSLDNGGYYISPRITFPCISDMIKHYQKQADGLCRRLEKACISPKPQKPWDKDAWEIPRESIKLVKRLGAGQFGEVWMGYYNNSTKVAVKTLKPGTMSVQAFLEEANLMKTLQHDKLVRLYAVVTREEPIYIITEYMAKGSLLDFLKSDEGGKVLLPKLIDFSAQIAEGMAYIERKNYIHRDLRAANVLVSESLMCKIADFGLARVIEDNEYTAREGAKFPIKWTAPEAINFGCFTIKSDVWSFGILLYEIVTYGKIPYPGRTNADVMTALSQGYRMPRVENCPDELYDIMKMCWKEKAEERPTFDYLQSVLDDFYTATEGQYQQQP
Sequence of UniProt Q99759 (whole entry, looked up): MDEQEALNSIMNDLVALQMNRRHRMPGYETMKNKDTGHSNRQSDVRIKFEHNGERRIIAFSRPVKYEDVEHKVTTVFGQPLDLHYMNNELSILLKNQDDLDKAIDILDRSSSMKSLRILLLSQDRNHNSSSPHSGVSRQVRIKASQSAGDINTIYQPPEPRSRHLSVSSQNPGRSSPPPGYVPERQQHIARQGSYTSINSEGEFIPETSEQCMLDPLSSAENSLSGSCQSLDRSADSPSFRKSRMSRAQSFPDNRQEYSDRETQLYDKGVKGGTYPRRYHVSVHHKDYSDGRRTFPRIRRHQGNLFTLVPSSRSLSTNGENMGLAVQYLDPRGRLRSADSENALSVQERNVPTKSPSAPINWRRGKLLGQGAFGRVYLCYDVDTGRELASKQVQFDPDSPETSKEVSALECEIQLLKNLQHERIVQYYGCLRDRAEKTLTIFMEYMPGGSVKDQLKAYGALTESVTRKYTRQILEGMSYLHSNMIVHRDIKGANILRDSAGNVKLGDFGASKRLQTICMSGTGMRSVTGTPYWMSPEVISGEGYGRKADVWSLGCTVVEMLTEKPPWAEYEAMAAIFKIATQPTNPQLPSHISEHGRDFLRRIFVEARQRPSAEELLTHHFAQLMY
Sequence of UniProt O96017 (whole entry, looked up): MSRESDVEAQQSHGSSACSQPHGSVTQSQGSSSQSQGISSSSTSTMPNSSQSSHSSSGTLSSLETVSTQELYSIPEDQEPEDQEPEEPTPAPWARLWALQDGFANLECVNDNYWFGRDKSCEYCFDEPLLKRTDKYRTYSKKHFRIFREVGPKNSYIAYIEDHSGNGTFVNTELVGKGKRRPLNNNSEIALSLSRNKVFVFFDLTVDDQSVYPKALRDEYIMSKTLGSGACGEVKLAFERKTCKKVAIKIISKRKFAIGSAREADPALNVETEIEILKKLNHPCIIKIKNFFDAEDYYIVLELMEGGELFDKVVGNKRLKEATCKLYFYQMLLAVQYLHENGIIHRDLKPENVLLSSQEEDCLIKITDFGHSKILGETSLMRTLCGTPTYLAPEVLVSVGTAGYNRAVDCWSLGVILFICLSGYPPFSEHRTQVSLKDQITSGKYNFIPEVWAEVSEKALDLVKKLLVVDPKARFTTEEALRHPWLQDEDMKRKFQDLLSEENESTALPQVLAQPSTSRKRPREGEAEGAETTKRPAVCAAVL
Sequence of UniProt Q14164 (whole entry, looked up): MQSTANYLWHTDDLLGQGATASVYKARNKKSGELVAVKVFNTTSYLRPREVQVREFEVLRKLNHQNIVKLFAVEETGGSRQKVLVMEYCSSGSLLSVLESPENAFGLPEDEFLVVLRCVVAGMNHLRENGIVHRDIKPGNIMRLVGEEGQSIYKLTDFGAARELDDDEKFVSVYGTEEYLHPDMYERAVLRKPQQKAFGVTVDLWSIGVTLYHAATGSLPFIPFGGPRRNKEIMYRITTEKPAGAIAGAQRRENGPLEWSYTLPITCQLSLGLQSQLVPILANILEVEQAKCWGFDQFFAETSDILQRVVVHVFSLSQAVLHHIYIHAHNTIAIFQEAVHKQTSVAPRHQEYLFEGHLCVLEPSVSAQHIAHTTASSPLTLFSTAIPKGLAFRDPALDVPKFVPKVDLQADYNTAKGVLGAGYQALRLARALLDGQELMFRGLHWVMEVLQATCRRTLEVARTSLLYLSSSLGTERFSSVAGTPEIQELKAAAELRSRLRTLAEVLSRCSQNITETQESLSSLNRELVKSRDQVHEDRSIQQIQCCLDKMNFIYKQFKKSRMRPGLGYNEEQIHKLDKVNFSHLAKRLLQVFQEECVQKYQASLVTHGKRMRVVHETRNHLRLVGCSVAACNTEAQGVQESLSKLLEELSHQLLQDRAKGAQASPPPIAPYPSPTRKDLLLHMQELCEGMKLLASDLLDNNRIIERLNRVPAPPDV
Sequence of UniProt Q96RR4 (whole entry, looked up): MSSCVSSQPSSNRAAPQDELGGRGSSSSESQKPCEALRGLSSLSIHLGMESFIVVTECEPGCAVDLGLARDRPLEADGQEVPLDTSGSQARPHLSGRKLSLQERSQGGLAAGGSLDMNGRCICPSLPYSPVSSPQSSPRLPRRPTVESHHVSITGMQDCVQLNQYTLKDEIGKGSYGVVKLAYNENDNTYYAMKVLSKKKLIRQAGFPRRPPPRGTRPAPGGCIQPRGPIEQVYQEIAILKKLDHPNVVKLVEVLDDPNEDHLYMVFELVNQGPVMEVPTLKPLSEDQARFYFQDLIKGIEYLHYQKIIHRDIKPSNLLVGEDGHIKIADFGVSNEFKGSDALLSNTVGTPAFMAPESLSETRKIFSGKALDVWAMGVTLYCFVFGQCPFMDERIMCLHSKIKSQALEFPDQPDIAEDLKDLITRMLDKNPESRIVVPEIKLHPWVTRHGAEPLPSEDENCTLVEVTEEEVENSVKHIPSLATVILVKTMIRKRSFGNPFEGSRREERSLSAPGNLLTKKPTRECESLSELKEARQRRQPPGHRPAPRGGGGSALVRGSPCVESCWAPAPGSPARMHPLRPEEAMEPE
Sequence of UniProt P45984 (whole entry, looked up): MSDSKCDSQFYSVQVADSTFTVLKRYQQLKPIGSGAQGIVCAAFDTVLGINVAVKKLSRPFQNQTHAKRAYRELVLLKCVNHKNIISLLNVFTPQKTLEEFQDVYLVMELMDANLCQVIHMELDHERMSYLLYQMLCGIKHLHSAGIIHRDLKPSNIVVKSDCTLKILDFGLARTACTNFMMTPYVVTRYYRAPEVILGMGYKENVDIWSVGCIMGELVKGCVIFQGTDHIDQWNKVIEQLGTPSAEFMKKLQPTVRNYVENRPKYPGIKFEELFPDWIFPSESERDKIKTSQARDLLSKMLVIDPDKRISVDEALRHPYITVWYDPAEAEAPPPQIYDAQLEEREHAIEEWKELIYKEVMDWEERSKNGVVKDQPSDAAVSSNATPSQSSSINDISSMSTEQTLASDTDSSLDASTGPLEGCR
Sequence of UniProt Q00535 (whole entry, looked up): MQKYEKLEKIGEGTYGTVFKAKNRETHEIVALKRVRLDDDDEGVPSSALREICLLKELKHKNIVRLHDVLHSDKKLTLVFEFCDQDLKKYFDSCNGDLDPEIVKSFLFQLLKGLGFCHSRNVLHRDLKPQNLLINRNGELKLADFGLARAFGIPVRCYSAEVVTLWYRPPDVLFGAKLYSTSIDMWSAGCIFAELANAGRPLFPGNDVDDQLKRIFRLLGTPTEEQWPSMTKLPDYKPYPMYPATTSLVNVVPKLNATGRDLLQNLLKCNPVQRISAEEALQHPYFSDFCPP
Sequence of UniProt P51955 (whole entry, looked up): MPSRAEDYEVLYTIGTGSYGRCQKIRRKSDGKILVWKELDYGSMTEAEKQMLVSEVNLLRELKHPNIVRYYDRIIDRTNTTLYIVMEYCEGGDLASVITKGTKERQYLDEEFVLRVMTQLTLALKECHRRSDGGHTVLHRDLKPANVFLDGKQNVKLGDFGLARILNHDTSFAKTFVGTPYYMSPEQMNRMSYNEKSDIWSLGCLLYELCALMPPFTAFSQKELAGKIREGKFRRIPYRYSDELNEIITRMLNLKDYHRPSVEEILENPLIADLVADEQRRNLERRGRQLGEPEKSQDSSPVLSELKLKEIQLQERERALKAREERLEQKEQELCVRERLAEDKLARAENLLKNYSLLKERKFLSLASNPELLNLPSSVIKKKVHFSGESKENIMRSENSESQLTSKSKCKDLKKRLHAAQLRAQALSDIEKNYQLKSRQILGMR

Study 1 — read-out: enzyme activity; action: inhibitor; tested at: 0.5 µM; baseline: control
Compound: CCn1cnc2c(Nc3cccc(Cl)c3)nc(N[C@H]3CCCC[C@H]3N)nc21
| target | remaining activity [%] |
| --- | --- |
| Serine/threonine-protein kinase Nek2 (NEK2, Homo sapiens, UniProt P51955) | 100 |
| Cyclin-dependent kinase 5, with p25 (CDK5, Homo sapiens, UniProt Q00535) | 5.16 |
| Mitogen-activated protein kinase kinase kinase 3 (MAP3K3, Homo sapiens, UniProt Q99759) | 103 |
| Inhibitor of nuclear factor kappa-B kinase subunit epsilon (IKBKE, Homo sapiens, UniProt Q14164) | 99.5 |
| Tyrosine-protein kinase Lyn, isoform B (LYN, Homo sapiens, UniProt P07948) | 92.9 |
| Calcium/calmodulin-dependent protein kinase kinase 2 (CAMKK2, Homo sapiens, UniProt Q96RR4) | 86.1 |
| Mitogen-activated protein kinase 9 (MAPK9, Homo sapiens, UniProt P45984) | 102 |
| Serine/threonine-protein kinase STK11 (STK11, Homo sapiens, UniProt Q15831) | 78 |
| Serine/threonine-protein kinase Chk2 (CHEK2, Homo sapiens, UniProt O96017) | 79.9 |
| cAMP-dependent protein kinase catalytic subunit alpha (PRKACA, Homo sapiens, UniProt P17612) | 102 |

Study 2 — Structure (SMILES): [N-]=[N+]=CC(=O)CC[C@H](N)C(=O)O; host: mouse, EL4 tumour; route: intravenous; dose: 1 mg/kg
| conditions | tumour volume |
| --- | --- |
| day 10 | 316 mm3 and 79 mm3 and 218 mm3 and 122 mm3 and 73.9 mm3 and 569 mm3 and 44.5 mm3 |
| day 8 | 237 mm3 and 252 mm3 and 548 mm3 and 288 mm3 and 560 mm3 and 680 mm3 and 405 mm3 and 301 mm3 |
| day 16 | 0 mm3 |
| day 11 | 72 mm3 and 303 mm3 and 0 mm3 and 376 mm3 and 185 mm3 and 72.6 mm3 and 220 mm3 |
| day 17 | 0 mm3 |

Study 3 — cell line: HEK-293T-ACE2-TMPRSS2; technique: cell count; tested at: concentration not given
| Structure (SMILES) | viability [%] |
| --- | --- |
| Cc1cc(C(=O)Cn2ncc(Cl)c(Cl)c2=O)c(C)n1C1CC1 | 94 |
| CCOC(=O)c1cccc(NC(=O)CCS(=O)(=O)c2ccc(Br)s2)c1 | 108 |
| Cc1oc(-c2cccs2)nc1CN(C)C1CCCc2ccccc21 (centres unmarked) | 104 |
| COc1ccc2c(c1)CC(C(=O)N1CCC(CCC(=O)Nc3ccccc3)CC1)CO2 (centres unmarked) | 111 |
| COc1nccnc1-c1ccnc2[nH]ccc12 | 120 |
| O=C1CCCN1c1ccc(Cn2nc3c(S(=O)(=O)N4CCCC4)cccn3c2=O)cc1 | 113 |
| O=C(c1cc(COc2cccc3cccnc23)on1)N1CCN(C2CCCC2)CC1 | 104 |
| COc1ccc(CNCCC(Cc2ccccc2)c2ccco2)cc1 (centres unmarked) | 241 |
| Cc1ccc(-c2nccn2-c2cccc(-c3nnc(C)s3)c2)o1 | 77 |
| Cc1ccsc1C(=O)N1C2CCC1c1cnc(-c3ccc(F)cc3)nc1C2 (centres unmarked) | 71 |
| COc1ccc(CCNC(=O)C2CCN(c3ncnc4oc(C)c(C)c34)CC2)c(OC)c1 | 76 |
| O=C(c1cscn1)N1CCc2c([nH]c3ccccc23)C1c1ccccc1F (centres unmarked) | 105 |
| CCS(=O)(=O)c1ncc(Cl)c(C(=O)Nc2ccc(S(=O)(=O)N3CCCCC3)cc2)n1 | 77 |
| CCOC(=O)c1nc(NCCCN2CCN(c3cc(C)ccc3C)CC2)c2ccccc2n1 | 83 |
| Cc1oc2ncnc(N3CCC(C(=O)NCCc4cccs4)CC3)c2c1C | 67 |
| Cc1ccc(C(=O)NCCC2=CCCN(C3C=CCCC3)C2)cc1F (centres unmarked) | 81 |
| CCOCC(=O)N1CC(F)(F)C[C@H]1c1nc(C2CC2)no1 | 112 |
| CC(=O)N[C@@H]1CN(C(=O)CCc2c[nH]c3ccccc23)C[C@H]1CO | 109 |
| Cc1ccc(CN2CCC(CNC(=O)C3CCN(c4ccc(-c5cccs5)nn4)CC3)C2)cc1 (centres unmarked) | 90 |
| C=CC(=O)N1CN(C(=O)C=C)CN(C(=O)C=C)C1 | 77 |
| O=C(C1CCCCC1)N1C[C@@H](CO)[C@H](c2ccncc2)C1 | 105 |
| CN(CCCNC(=O)c1ccc(Nc2cc(-c3ccc(F)cc3)ncn2)cc1)c1ccccc1 | 73 |
| Cc1ccc(C(=O)C2=C(O)C(=O)N(CC(C)C)C2c2cccc(O)c2)cc1 (centres unmarked) | 67 |
| COc1ccc(CCNC(=O)c2ccc(CN3CCc4ccccc4C3)cc2)cc1OC | 67 |
| COc1ccc(C2(C(=O)N3CCC(Cc4nc(-c5ccc(F)cc5)no4)CC3)CC2)cc1 | 65 |

Study 4 — cell line: HEK-293T/ACE2; technique: Hoechst nuclei count; tested at: concentration not given; time: 16 (unit not given); baseline: vehicle
| SMILES | viability [%] |
| --- | --- |
| C[C@@](Cc1ccc(O)c(O)c1)(NN)C(=O)O | 106 |
| CNCC(O)c1ccc(OC(=O)C(C)(C)C)c(OC(=O)C(C)(C)C)c1 (centres unmarked) | 100 |
| NC(=O)Cc1cccc(C(=O)c2ccccc2)c1N | 97 |
| CCc1nn(CCCN2CCN(c3cccc(Cl)c3)CC2)c(=O)n1CCOc1ccccc1 | 96.4 |
| CN1CCC(=C2c3ccccc3CCc3cccnc32)CC1 | 97.6 |
| C=C(c1ccc(C(=O)O)cc1)c1cc2c(cc1C)C(C)(C)CCC2(C)C | 102 |
| N#CC1(c2ccc(NC(=O)c3cccnc3NCc3ccncc3)cc2)CCCC1 | 95.3 |
| Cc1ccc(Nc2nccc(N(C)c3ccc4c(C)n(C)nc4c3)n2)cc1S(N)(=O)=O | 86.3 |
| OCCOCCN1CCN(C(c2ccccc2)c2ccc(Cl)cc2)CC1 (centres unmarked) | 101 |
| CCOC(=O)[C@H](CCc1ccccc1)N[C@@H](C)C(=O)N1[C@H](C(=O)O)C[C@@H]2CCC[C@@H]21 | 103 |
| COc1cccc2c1C(=O)c1c(O)c3c(c(O)c1C2=O)C[C@@](O)(C(C)=O)C[C@@H]3O[C@H]1C[C@H](N)[C@H](O)[C@H](C)O1 | 75.1 |
| NC(=O)OCC(COC(N)=O)c1ccccc1 | 104 |
| COc1ccc(CN=c2[nH]c(N3CCC[C@H]3CO)ncc2C(=O)NCc2ncccn2)cc1Cl | 106 |
| CC(=O)O[C@]1(C(C)=O)CC[C@H]2[C@@H]3C=C(C)C4=CC(=O)CC[C@]4(C)[C@H]3CC[C@@]21C | 97 |
| CC(=O)N[C@H]1[C@H]([C@H](O)[C@H](O)CO)OC(C(=O)O)=C[C@@H]1N=C(N)N | 106 |
| C[C@]12CC[C@H](O)CC1=CC[C@@H]1[C@@H]2CC[C@]2(C)C(c3cccnc3)=CC[C@@H]12 | 95.9 |
| CCOC(=O)c1ncn2c1CN(C)C(=O)c1cc(F)ccc1-2 | 98.2 |
| O=C(O[C@H]1CN2CCC1CC2)N1CCc2ccccc2[C@@H]1c1ccccc1 | 98.3 |
| CN(C)CCCC1(c2ccc(F)cc2)OCc2cc(C#N)ccc21 (centres unmarked) | 102 |
| C[N+](C)(C)CC(=O)O | 102 |
| CC(=O)Oc1ccc(C(c2ccc(OC(C)=O)cc2)c2ccccn2)cc1 | 99.2 |
| CC[C@@H]1/C=C(\C)C[C@H](C)C[C@H](OC)[C@H]2O[C@@](O)(C(=O)C(=O)N3CCCC[C@H]3C(=O)O[C@H](/C(C)=C/[C@@H]3CC[C@H](Cl)[C@H](OC)C3)[C@H](C)[C@@H](O)CC1=O)[C@H](C)C[C@@H]2OC | 102 |
| CC(=O)O[C@H]1CC[C@@]2(C)C(=CC[C@@H]3[C@@H]2CC[C@]2(C)C(c4cccnc4)=CC[C@@H]32)C1 | 96.1 |
| O=c1ccc2ccc(OCCCCN3CCN(c4cccc5sccc45)CC3)cc2[nH]1 | 99.9 |
| Cc1ccc(C(=O)c2ccc(CC(=O)O)n2C)cc1 | 101 |

For quick reference, copied from above (study 4):
| SMILES | viability [%] |
| --- | --- |
| Cc1ccc(Nc2nccc(N(C)c3ccc4c(C)n(C)nc4c3)n2)cc1S(N)(=O)=O | 86.3 |
| Cc1ccc(C(=O)c2ccc(CC(=O)O)n2C)cc1 | 101 |
| COc1cccc2c1C(=O)c1c(O)c3c(c(O)c1C2=O)C[C@@](O)(C(C)=O)C[C@@H]3O[C@H]1C[C@H](N)[C@H](O)[C@H](C)O1 | 75.1 |
| NC(=O)OCC(COC(N)=O)c1ccccc1 | 104 |
| CC(=O)N[C@H]1[C@H]([C@H](O)[C@H](O)CO)OC(C(=O)O)=C[C@@H]1N=C(N)N | 106 |
